Experimental data collected from several papers.
± gives the spread as reported.
Chain of UniProt P50052 (whole entry, unmodified, looked up): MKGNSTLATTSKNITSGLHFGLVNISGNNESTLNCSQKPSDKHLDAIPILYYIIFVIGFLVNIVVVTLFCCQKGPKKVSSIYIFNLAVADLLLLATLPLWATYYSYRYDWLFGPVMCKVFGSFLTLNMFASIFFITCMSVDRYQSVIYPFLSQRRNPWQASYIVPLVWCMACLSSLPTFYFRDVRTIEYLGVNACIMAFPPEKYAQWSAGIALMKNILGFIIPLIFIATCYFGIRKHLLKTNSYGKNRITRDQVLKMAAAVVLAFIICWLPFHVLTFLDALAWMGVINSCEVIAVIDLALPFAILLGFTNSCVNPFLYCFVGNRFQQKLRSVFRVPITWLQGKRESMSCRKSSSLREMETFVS

`C=C(c1cc(F)c(C(=O)O)c(F)c1)c1cc2c(cc1C)C(C)(C)CCC2(C)C`: “log2 fold change” 1.28 (RNA sequencing, measured: Nmb; rat, brain; dose not given, 24 h; relative to: vehicle).
Under “swim path distance”, `N#Cc1ccc(-c2cc(=O)c3ccc4[nH]c(C(F)(F)F)nc4c3o2)cc1` is recorded as “decreased” (Morris water maze; 5xFAD mice; 3 mg/kg).
For `CC(C)(O)c1ccc(N2Cc3c(ccnc3-c3ccc(F)cc3OCC(F)(F)F)C2=O)cc1`, the glucosylsphingosine level was 73 ± 6% (Gaucher disease mouse model, brain; 10 mg/kg, 2 months once daily; relative to: vehicle).
`C=CC(=O)N1C[C@H](C)N(c2nc(OC[C@@]34CCCN3C[C@H](F)C4)nc3c(F)c(-c4ccc(F)c5sc(N)c(C#N)c45)c(C(F)(F)F)cc23)C[C@H]1C` gave a tumour regression of 56% (mouse, KCP lung tumour model; oral, 10 mg/kg once daily, 42 days).
For `NS(=O)(=O)Nc1ncnc(OCCOc2ncc(Br)cn2)c1-c1ccc(Br)cc1`, the Vmax was 1730 ± 67 pmol/min/mg (metabolite formation; female Beagle dog, liver microsomes; 50 mg/kg daily for 4 weeks).
The proliferation reduction of `CC1=CCC23OC2(C)CCC2C(CN(C)C)C(=O)OC2C13.Cl` (stereo not drawn) is reported as 2 fold (C6 rat glioma cells; 2.5 mg/mL, clonogenic; relative to: control).
The IC50 of `COc1cc(CCC(C)=O)ccc1O` is reported as greater than 4 µg/mL (mAb 5-D8; antibody binding, indirect competitive ELISA; together with: coating antigen hapten 1-OVA).
For `Cc1cc2c(cc1O)C=C1C=CC(=O)C(C)(C)[C@H]1CC2`, relative abundance read “decreased” (measured: Shigella, Parabacteroides, Clostridium; C57BL/6J mouse DSS colitis, faeces; dose not given; relative to: DSS alone).
`CCCC[C@H](NC(=O)[C@@H](NC(=O)[C@H](CC(=O)O)NC(=O)[C@H](CCC(N)=O)NC(=O)[C@H](CC(C)C)NC(=O)[C@H](CC(C)C)NC(=O)[C@H](CCCN)NC(=O)[C@H](CCCNC(=N)N)NC(=O)[C@H](C)NC(=O)[C@H](CO)NC(=O)[C@H](CC(C)C)NC(=O)[C@H](CCC(N)=O)NC(=O)[C@H](CC)NC(=O)[C@H](CC(C)C)NC(=O)[C@@H](NC(=O)[C@H](CCCN)NC(=O)[C@H](CCCNC(=N)N)NC(=O)[C@H](Cc1ccc(O)cc1)NC(=O)[C@H](CO)NC(=O)[C@H](CC(N)=O)NC(=O)[C@@H](NC(=O)[C@H](Cc1ccccc1)NC(=O)[C@@H](NC(=O)[C@H](C)NC(=O)[C@H](CC(=O)O)NC(=O)[C@@H](C)NC(=O)[C@H](Cc1ccc(O)cc1)NC)[C@@H](C)CC)[C@@H](C)O)C(C)C)[C@@H](C)CC)C(=O)N[C@@H](CC(=O)O)C(=O)N[C@@H](CCCNC(=N)N)C(=O)NCC` — result for “serum GH level”: 137 ± 17.5 ng/mL (GH release, ELISA; male Sprague-Dawley rat, anaesthetised, serum; subcutaneous, 3 µg/kg, 30 min).
For `CCOP(=O)(CC(=O)Nc1ccc(S(=O)(=O)N(CC(N)=O)c2ccc(N(CC(N)=O)S(=O)(=O)c3ccc(OC)cc3)c3ccccc23)cc1)OCC`, “nuclear to cytoplasmic Nrf2” read “increased” (Western blot; APP/PS1 mice, hippocampus and frontal cortex; 40 mg/kg; relative to: nuclear over cytoplasmic Nrf2).
`[64Cu+2].c1cnc(CNCc2ccc(CN3CCCN4CCNCCCN(CC4)CC3)cc2)nc1` has a tissue uptake of 4.86 ± 0.52 %ID/g (CXCR4 (human); NOD/SCID mice, U87 xenografts, small intestine; 60 min post-injection).
`CCCC[C@H](NC(=O)[C@@H](NC(=O)[C@H](CC(=O)O)NC(=O)[C@H](CCC(N)=O)NC(=O)[C@H](CC(C)C)NC(=O)[C@H](CC(C)C)NC(=O)[C@H](CCCN)NC(=O)[C@H](CCCNC(=N)N)NC(=O)[C@H](C)NC(=O)[C@H](CO)NC(=O)[C@H](CC(C)C)NC(=O)[C@H](CCC(N)=O)NC(=O)[C@H](CC)NC(=O)[C@H](CC(C)C)NC(=O)[C@@H](NC(=O)[C@H](CCCN)NC(=O)[C@H](CCCNC(=N)N)NC(=O)[C@H](Cc1ccc(O)cc1)NC(=O)[C@H](CO)NC(=O)[C@H](CCC(N)=O)NC(=O)[C@@H](NC(=O)[C@H](Cc1ccccc1)NC(=O)[C@@H](NC(=O)[C@H](C)NC(=O)[C@H](CC(=O)O)NC(=O)[C@H](C)NC(=O)[C@H](Cc1ccc(O)cc1)NC)[C@@H](C)CC)[C@@H](C)O)C(C)C)[C@@H](C)CC)C(=O)N[C@@H](CC(=O)O)C(=O)NCCCCNC(=N)N` — result for “serum GH level”: 37.8 ± 5.7 ng/mL (GH release, ELISA; male rat, anaesthetised, serum; intravenous, 1 µg/kg, 0 min).
Under “ear edema weight increase”, `COc1c2c(cc3oc(COC4OC(CO)C(O)C(O)C4O)cc(=O)c13)OC(C(C)(C)O)C2` (stereo not drawn) is recorded as 4.32 ± 0.42 mg (mouse, xylene ear edema; oral, 4 mg/kg).
`CCc1nnc(NS(=O)(=O)c2ccc(NC(=S)NC(=O)/C=C/c3ccc(F)cc3)cc2)s1` gave an allograft weight of roughly 63% (NXS2 allograft, A/J mice; intraperitoneal, 20 mg/kg daily, 3 weeks; relative to: vehicle).
With `CCCCC/C=C/C(=O)CCc1ccc(O)c(OC)c1` the IC50 was greater than 4 µg/mL (mAb 5-D8; antibody binding, indirect competitive ELISA; together with: coating antigen hapten 2-OVA).
With `CN1CCC[C@]1(C)/C=C/S(=O)(=O)NC(=O)Nc1c2c(cc3c1CCC3)CCC2` the inhibition was roughly 90% (IL-18 release; human, whole blood ex vivo; oral, 50 mg, 36 h after last dose, multiple ascending dose, together with: LPS and ATP).
`O=c1c(OCc2ccccc2)c(-c2cccc([N+](=O)[O-])c2)oc2ccccc12`: “serum alanine aminotransferase” 40.9 ± 2.96 IU (diabetic rat; 7.5 mg/kg, p-nitrophenyl β-glucoside induced).
For `CCc1nc2ccc(N(Cc3ccccc3)C(=O)c3cccs3)cc2c(=O)n1Cc1ccc(-c2ccccc2-c2nn[nH]n2)cc1`, the Ki was 9.33 nM (Type-2 angiotensin II receptor (AGTR2, Homo sapiens, UniProt P50052, I211A); ligand displacement, radioligand; cell membranes).
For `O=C1CCN(Cc2ccccc2)CC1C(C[N+](=O)[O-])c1ccccc1` (stereo not drawn), “number of writhes” read 54.7 ± 1.2 (mouse acetic acid writhing; 25 mg/kg, together with: yohimbine 1 mg/kg pretreatment).
With `[64Cu+2].c1ccc(CNCc2ccc(CN3CCCN4CCNCCCN(CC4)CC3)cc2)nc1` the tissue uptake was 2.12 ± 0.18 %ID/g (CXCR4; NOD/SCID mouse, U87 and U87-stb-CXCR4 xenografts, heart; iv, 60 min, ex vivo).
For `CCCCCCCOC(=O)Cc1c(C)n(C(=O)c2ccc(Cl)cc2)c2ccc(OC)cc12`, “latency of nociceptive response” read 10.5 ± 0.68 s (hot plate test; BALB/c mice; 75 mg/kg, 0 min).
With `C=C1CC[C@H](OCCCNC(=O)CCOCCOCCOCCOCCOCCOCCOCCOCCOCCOCCOCCOCCOCCOCCOCCOCCOCCOCCOCCOCCOCCOCCOCCOCCOCCOCCOCCOCCOCCOCCOCCOCCOCCOCCOCCOCCNC(=O)CCN2C(=O)CC(SC[C@H](NC(=O)[C@H](Cc3ccccc3)NC(=O)[C@H](CC(N)=O)NC(=O)[C@H](Cc3c[nH]cn3)NC(=O)[C@@H](NC(=O)[C@H](CC(=O)O)NC(=O)[C@H](CCC(N)=O)NC(=O)[C@H](CC(C)C)NC(=O)[C@H](CCCCN)NC(=O)[C@H](CCCCN)NC(=O)[C@H](CCCNC(=N)N)NC(=O)[C@H](CC(C)C)NC(=O)[C@H](Cc3c[nH]c4ccccc34)NC(=O)[C@H](CCC(=O)O)NC(=O)[C@@H](NC(=O)[C@H](CCCNC(=N)N)NC(=O)[C@H](CCC(=O)O)NC(=O)[C@H](CCSC)NC(=O)[C@H](CO)NC(=O)[C@H](CC(N)=O)NC(=O)[C@H](CC(C)C)NC(=O)[C@H](Cc3c[nH]cn3)NC(=O)[C@H](CCCCN)NC(=O)CNC(=O)[C@H](CC(C)C)NC(=O)[C@H](CC(N)=O)NC(=O)[C@H](Cc3c[nH]cn3)NC(=O)[C@H](CCSC)NC(=O)[C@H](CC(C)C)NC(=O)[C@H](CCC(N)=O)NC(=O)[C@@H](NC(=O)[C@H](CCC(=O)O)NC(=O)[C@H](CO)NC(=O)[C@@H](NC(=O)[C@@H](N)CO)C(C)C)[C@@H](C)CC)C(C)C)C(C)C)C(N)=O)C2=O)C/C1=C/C=C1\CCC[C@]2(C)[C@@H]([C@H](C)CCCC(C)(C)O)CC[C@@H]12` (stereo partly drawn) the dose-normalized AUC was 1 (Sprague Dawley rat; subcutaneous, 1 µg/kg daily, 89 days; relative to: reference dose).
For `O=Cc1c(O)ccc2ccccc12`, “log2 fold change” read 3.55 (HUVEC; RNA sequencing, measured: PTGS2; 75 µM, 24 h; relative to: DMSO).
`CCCCCCCCCCCCCCc1sc(NC(=O)CCN2CCC(O)CC2)nc1-c1ccccc1` — result for “DPPH radical scavenging”: 17.8% (0.1 mM, 20 min).
For `Cc1ncc([N+](=O)[O-])n1CCOCc1nnc(SCC(=O)c2ccc([N+](=O)[O-])cc2)o1`, the DPPH scavenging was 60.2 ± 1.45% (50 µg/mL, 45 min).
`CC[C@H]1[C@@H](O)[C@@H]2[C@H](CC[C@]3(C)[C@@H]([C@H](C)CCOS(=O)(=O)[O-])CC[C@@H]23)[C@@]2(C)CC[C@@H](O)C[C@@H]12.[Na+]`: “fasting blood glucose” 8 ± 0.3 mmol/L (ob/ob NASH mouse model; oral, 10 mg/kg once daily, week 4).
For `COc1ccc2c(c1)c(CC(=O)OCOC(C)=O)c(C)n2C(=O)c1ccc(Cl)cc1`, “latency of nociceptive response” read 17.6 ± 0.66 s (hot plate test; BALB/c mice; 100 mg/kg, 60 min).
`O=c1c(OCc2ccccc2)c(-c2ccc([N+](=O)[O-])cc2)oc2ccccc12` — result for “serum HDL cholesterol”: 39.9 ± 1.92 mg/dL (diabetic rat; 5 mg/kg, 28 days, p-nitrophenyl β-glucoside induced).
With `CCCCCCCCCCCC(=O)NCCC(=O)N[C@@H](CCCNC(=N)N)C(=O)N[C@@H](CCCNC(=N)N)C(=O)N[C@@H](CCCNC(=N)N)C(=O)N[C@@H](CCCNC(=N)N)C(=O)N[C@H](CCCNC(=N)N)C(=O)N[C@H](CCCNC(=N)N)C(=O)N[C@H](CCCNC(=N)N)C(=O)N[C@H](CCCNC(=N)N)C(=O)N[C@H](CCCNC(=N)N)C(=O)N[C@@H](CCCCNC(=S)Nc1ccc2c(c1)C(=O)OC21c2ccc(O)cc2Oc2cc(O)ccc21)C(N)=O` the peak area was 30.1% (Jurkat; RP-HPLC fluorescence, measured: intact peptide; culture medium; 6 h).
`CCCC[C@H](NC(=O)[C@@H](NC(=O)[C@H](CC(=O)O)NC(=O)[C@H](CCC(N)=O)NC(=O)[C@H](CC(C)C)NC(=O)[C@H](CC(C)C)NC(=O)[C@H](CCCN)NC(=O)[C@H](CCCNC(=N)N)NC(=O)[C@H](C)NC(=O)[C@H](CO)NC(=O)[C@H](CC(C)C)NC(=O)[C@H](CCC(N)=O)NC(=O)[C@H](CC)NC(=O)[C@H](CC(C)C)NC(=O)[C@@H](NC(=O)[C@H](CCCN)NC(=O)[C@H](CCCNC(=N)N)NC(=O)[C@H](Cc1ccc(O)cc1)NC(=O)[C@H](CO)NC(=O)[C@H](CCC(N)=O)NC(=O)[C@@H](NC(=O)[C@H](Cc1ccccc1)NC(=O)[C@@H](NC(=O)[C@H](C)NC(=O)[C@H](CC(=O)O)NC(=O)[C@H](C)NC(=O)[C@H](Cc1ccc(O)cc1)NC)[C@@H](C)CC)[C@@H](C)O)C(C)C)[C@@H](C)CC)C(=O)N[C@@H](CC(=O)O)C(=O)N[C@@H](CCCNC(=N)N)C(=O)NC` — result for “serum GH level”: 493 ± 21.8 ng/mL (GH release, ELISA; male Sprague-Dawley rat, anaesthetised, serum; subcutaneous, 3 µg/kg, 15 min).
For `Cc1ccc(C(=O)Nc2ccc(CP(=O)(O)O)cc2CP(=O)(O)O)cc1NC(=O)c1cccc(NC(=O)Nc2cccc(C(=O)Nc3cc(C(=O)Nc4ccc(CP(=O)(O)O)cc4CP(=O)(O)O)ccc3C)c2)c1`, the APTT was 83.7 ± 8.6 s (human plasma; 470 µM).
For `CCCc1nc2ccc(N(Cc3ccco3)C(=O)c3ccccc3)cc2c(=O)n1Cc1ccc(-c2ccccc2-c2nnn[nH]2)cc1`, the Ki was 3.98 nM (Type-2 angiotensin II receptor (AGTR2, Homo sapiens, UniProt P50052, M214A); ligand displacement, radioligand; cell membranes).
`Cc1ccc(S(=O)(=O)N(CCc2nnc(S)n2N)c2ccccc2)cc1` gave an analgesic protection of 105% (tail flick, radiant heat; rat; 200 mg/kg).

For quick reference, copied from above:
Under “swim path distance”, `N#Cc1ccc(-c2cc(=O)c3ccc4[nH]c(C(F)(F)F)nc4c3o2)cc1` is recorded as “decreased” (Morris water maze; 5xFAD mice; 3 mg/kg).
For `CC(C)(O)c1ccc(N2Cc3c(ccnc3-c3ccc(F)cc3OCC(F)(F)F)C2=O)cc1`, the glucosylsphingosine level was 73 ± 6% (Gaucher disease mouse model, brain; 10 mg/kg, 2 months once daily; relative to: vehicle).
`C=CC(=O)N1C[C@H](C)N(c2nc(OC[C@@]34CCCN3C[C@H](F)C4)nc3c(F)c(-c4ccc(F)c5sc(N)c(C#N)c45)c(C(F)(F)F)cc23)C[C@H]1C` gave a tumour regression of 56% (mouse, KCP lung tumour model; oral, 10 mg/kg once daily, 42 days).
For `NS(=O)(=O)Nc1ncnc(OCCOc2ncc(Br)cn2)c1-c1ccc(Br)cc1`, the Vmax was 1730 ± 67 pmol/min/mg (metabolite formation; female Beagle dog, liver microsomes; 50 mg/kg daily for 4 weeks).
